Experimental data from different studies.
Every numbered part comes from another study and shows a few of its results, in no order.
UniProt Q9UL54, sequence (whole entry, looked up): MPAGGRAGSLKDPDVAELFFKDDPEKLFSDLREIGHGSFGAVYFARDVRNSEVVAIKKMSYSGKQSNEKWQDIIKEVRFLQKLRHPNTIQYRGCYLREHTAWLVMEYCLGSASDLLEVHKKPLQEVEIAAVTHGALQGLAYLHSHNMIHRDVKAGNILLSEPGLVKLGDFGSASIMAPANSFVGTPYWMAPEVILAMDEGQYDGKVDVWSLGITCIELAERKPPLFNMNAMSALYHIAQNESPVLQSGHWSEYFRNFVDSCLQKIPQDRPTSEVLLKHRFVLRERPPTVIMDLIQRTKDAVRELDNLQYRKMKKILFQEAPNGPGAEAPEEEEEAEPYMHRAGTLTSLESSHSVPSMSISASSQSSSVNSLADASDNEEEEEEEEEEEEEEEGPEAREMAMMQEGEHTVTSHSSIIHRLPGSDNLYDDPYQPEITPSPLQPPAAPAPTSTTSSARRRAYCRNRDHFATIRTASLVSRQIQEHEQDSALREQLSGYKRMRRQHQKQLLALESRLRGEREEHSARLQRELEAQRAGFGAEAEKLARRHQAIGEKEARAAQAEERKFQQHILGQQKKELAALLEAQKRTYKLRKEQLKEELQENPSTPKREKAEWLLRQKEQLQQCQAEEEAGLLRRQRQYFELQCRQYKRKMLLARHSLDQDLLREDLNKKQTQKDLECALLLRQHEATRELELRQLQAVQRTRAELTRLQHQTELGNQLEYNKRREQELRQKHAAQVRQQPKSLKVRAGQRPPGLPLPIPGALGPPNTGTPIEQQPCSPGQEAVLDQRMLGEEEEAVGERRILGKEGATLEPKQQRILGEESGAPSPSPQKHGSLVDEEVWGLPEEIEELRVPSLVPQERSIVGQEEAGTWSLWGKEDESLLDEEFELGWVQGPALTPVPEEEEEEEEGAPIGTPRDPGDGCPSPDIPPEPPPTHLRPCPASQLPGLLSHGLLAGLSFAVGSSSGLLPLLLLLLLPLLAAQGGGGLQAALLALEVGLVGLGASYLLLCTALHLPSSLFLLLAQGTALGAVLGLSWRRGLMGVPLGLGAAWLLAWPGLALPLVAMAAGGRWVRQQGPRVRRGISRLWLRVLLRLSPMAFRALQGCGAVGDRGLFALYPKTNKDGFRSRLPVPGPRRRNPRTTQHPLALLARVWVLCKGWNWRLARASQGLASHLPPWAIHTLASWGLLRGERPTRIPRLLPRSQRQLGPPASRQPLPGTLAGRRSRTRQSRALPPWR
UniProt Q9Y243, sequence (whole entry, looked up): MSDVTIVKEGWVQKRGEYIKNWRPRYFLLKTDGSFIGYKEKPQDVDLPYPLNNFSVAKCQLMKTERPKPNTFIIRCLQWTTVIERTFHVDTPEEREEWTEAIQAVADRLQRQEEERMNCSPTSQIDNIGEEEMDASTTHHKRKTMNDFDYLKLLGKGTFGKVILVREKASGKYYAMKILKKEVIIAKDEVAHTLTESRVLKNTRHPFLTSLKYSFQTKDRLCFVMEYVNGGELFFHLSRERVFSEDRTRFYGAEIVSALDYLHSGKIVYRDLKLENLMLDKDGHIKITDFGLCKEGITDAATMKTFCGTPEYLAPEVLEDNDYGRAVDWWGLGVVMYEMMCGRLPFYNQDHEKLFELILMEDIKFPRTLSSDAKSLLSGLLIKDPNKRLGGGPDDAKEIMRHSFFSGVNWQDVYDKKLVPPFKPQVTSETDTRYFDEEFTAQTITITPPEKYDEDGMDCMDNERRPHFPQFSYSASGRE
UniProt O96013, sequence (whole entry, looked up): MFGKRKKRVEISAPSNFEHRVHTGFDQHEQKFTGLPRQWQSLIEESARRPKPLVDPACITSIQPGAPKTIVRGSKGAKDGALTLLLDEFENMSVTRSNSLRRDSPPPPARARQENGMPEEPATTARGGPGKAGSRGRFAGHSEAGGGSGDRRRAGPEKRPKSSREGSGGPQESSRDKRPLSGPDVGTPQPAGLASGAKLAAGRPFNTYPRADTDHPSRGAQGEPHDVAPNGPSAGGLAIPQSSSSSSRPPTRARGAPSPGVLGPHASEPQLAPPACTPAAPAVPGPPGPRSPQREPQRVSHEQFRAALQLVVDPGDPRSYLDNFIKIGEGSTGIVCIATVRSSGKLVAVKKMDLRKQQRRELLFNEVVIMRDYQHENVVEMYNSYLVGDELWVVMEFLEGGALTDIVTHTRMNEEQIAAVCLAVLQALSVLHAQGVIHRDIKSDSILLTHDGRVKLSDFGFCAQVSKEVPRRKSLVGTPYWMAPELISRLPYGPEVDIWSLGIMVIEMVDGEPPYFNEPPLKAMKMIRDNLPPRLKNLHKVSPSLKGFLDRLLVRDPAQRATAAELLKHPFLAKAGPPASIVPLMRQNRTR
UniProt P23458, sequence (whole entry, looked up): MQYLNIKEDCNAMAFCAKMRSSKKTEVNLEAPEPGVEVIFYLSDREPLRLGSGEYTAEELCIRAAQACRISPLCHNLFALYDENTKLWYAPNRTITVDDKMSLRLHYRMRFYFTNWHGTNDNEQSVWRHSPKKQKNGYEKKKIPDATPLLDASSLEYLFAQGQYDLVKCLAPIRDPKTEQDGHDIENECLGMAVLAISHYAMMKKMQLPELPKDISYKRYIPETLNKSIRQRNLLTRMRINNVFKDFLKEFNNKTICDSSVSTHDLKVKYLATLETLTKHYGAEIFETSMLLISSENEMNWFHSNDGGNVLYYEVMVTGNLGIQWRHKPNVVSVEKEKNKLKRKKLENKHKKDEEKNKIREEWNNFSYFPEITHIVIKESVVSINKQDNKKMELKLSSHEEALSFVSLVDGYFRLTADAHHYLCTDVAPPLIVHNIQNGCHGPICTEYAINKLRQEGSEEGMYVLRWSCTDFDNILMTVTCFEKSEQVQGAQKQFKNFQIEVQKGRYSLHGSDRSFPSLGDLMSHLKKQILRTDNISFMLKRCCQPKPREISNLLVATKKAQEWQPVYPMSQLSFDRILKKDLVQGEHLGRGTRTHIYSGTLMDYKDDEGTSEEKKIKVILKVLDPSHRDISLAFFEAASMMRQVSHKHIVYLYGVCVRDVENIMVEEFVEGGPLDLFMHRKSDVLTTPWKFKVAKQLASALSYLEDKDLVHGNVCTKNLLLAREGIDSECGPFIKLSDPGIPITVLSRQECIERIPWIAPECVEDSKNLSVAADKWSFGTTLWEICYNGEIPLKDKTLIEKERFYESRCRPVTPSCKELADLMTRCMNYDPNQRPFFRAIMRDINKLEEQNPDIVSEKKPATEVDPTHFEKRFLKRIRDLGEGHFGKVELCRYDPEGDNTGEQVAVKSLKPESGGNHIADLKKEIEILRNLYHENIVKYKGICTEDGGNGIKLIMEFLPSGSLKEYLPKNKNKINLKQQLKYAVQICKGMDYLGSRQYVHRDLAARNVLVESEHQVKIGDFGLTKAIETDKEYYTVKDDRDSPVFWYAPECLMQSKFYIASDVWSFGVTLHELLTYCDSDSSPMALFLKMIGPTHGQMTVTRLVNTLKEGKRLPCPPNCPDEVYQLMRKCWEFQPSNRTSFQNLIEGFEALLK
UniProt Q8N5S9, sequence (whole entry, looked up): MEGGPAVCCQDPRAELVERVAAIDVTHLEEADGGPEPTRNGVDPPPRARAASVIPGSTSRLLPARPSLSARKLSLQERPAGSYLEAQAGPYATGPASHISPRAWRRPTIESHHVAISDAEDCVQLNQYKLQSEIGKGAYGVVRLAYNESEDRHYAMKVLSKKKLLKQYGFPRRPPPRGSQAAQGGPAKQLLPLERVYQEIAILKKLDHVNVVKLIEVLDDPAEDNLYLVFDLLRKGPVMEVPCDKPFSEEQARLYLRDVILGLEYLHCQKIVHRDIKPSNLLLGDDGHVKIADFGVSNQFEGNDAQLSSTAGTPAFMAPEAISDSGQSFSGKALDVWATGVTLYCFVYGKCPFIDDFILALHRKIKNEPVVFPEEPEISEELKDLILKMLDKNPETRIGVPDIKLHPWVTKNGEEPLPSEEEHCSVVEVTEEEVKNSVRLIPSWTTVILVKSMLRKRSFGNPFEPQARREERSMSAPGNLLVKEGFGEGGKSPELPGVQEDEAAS

Sample 1
Target: Protein kinase C gamma type (PRKCG, Homo sapiens, UniProt P05129)
Effect on: enzyme activity
Mode: inhibitor
Tested at: 0.5 µM
Baseline: control
Structure (SMILES) | remaining activity [%]
Cc1ccc(NC(=O)c2ccc(CN3CCN(C)CC3)cc2)cc1Nc1nc(-c2cccnc2)cs1 | 95.8
N#CC(C#N)=C(N)/C(C#N)=C/c1ccc(O)cc1 | 105
OCC(O)CCON=C1C(c2c(O)[nH]c3ccccc23)=Nc2ccccc21 (centres unmarked) | 92
NCCNc1ncc(C(N)=O)c(Nc2cccc(C(F)(F)F)c2)n1 | 111
O=C1NC(=O)C(c2cn(CCCO)c3ncccc23)=C1c1cnccn1 | 93.1
O=C(O)c1ccc2c3c1cccc3c(=O)n1c3ccccc3nc21 | 99.1
Oc1ccc(-c2nc(-c3ccncc3)c(-c3ccc(F)cc3)[nH]2)cc1 | 87.9
Cn1c2ccccc2c2c3c(c4c5ccccc5n(CCC#N)c4c21)CNC3=O | 72.1
CN(C)c1ccc(C=C2C(=O)Nc3ccccc32)cc1 | 96.8
COc1cc2ncnc(Nc3ccc(F)c(Cl)c3)c2cc1OCCCN1CCOCC1 | 84.2
COc1ccc(C(=O)Nc2sc3c(c2C(N)=O)CCCC3)cc1OC | 93
O=S(=O)(c1cccc2cnccc12)N1CCCNCC1 | 110
COc1cc2ncnc(Nc3ccc(Oc4ccccc4)cc3)c2cc1OC | 84.6
CC(C)[C@H](CO)Nc1nc(Nc2cc(N)cc(Cl)c2)c2ncn(C(C)C)c2n1 | 107
CNC(=O)c1cc(Oc2ccc(NC(=O)Nc3ccc(Cl)c(C(F)(F)F)c3)cc2)ccn1 | 94.7
O=C(CCCc1ccc(-c2ccccc2F)cc1)Nc1ccc(O)cc1 | 98

Sample 2
SMILES: CN([C@@H]1CCc2c(CC(=O)O)c3ccccc3n2C1)S(=O)(=O)c1ccc(F)cc1
Effect on: cell-free assay
Technique: competition with immobilised ligand
Tested at: 1 µM
target | remaining binding [%]
Tyrosine-protein kinase JAK1, JH1 (JAK1, Homo sapiens, UniProt P23458) | 100
CAMKK1 (Homo sapiens, UniProt Q8N5S9) | 91
AKT3 (Homo sapiens, UniProt Q9Y243) | 100
TAOK2 (Homo sapiens, UniProt Q9UL54) | 82
PAK4 (Homo sapiens, UniProt O96013) | 100

Sample 3
Species: human
Medium: microsomes or S9
Tested at: 2 µM
Time: 0.5 h
Compound | remaining compound
Cc1ccc(OCCN2CCOCC2)c(NC(=O)c2cc3cc(C)ccc3n2C)c1 | 11.9%
Cc1sc2c(c1C)c1nnc(SCCN(C)C)n1c1nnc(SCCN(C)C)n21 | 57.4%
NCc1nc(COc2ccc3ccccc3c2)no1 | 21.5%
CSc1[nH]c2c(C(F)(F)F)ccc(C(F)(F)F)c2c(=O)c1C(C)=O | 93.8%
OCc1cc2nc(-c3ccc(OC4CCOC4)cc3)ccc2o1 (centres unmarked) | 73%
COc1ccc(/C=C(/C)c2nc(C)c(-c3ccccc3)c(O)n2)cc1 | 55.5%
N#Cc1ccc(Cn2cnc3c([nH]c4ccccc43)c2=O)cc1 | 18.5%

Sample 4
Cell line: A-375
Tested at: 100 µM
Time: 18 h
SMILES | viability [%]
CN1C(=O)OC(C)(C)C1=O | 91.9
CCCS(=O)(=O)Nc1ccc(F)c(C(=O)c2c[nH]c3ncc(-c4ccc(Cl)cc4)cc23)c1F | 30.7
CC(C)(C)C(=O)OCOP(=O)(COCCn1cnc2c(N)ncnc21)OCOC(=O)C(C)(C)C | 66.6
C#CC1(O)CC[C@H]2[C@@H]3CCC4=CC(=O)CC[C@@H]4[C@H]3CC[C@@]21CC (some centres unmarked) | 62.3
O=c1[nH]cnc2c1ncn2[C@H]1CC[C@@H](CO)O1 | 104
C[N+]1(C)[C@@H]2C[C@@H](OC(=O)C(O)(c3cccs3)c3cccs3)C[C@H]1[C@@H]1O[C@@H]12 | 104
CN(C)CC(c1ccc(O)cc1)C1(O)CCCCC1 (centres unmarked) | 92.8

Excerpt of the above (sample 3):
Compound | remaining compound
Cc1sc2c(c1C)c1nnc(SCCN(C)C)n1c1nnc(SCCN(C)C)n21 | 57.4%
NCc1nc(COc2ccc3ccccc3c2)no1 | 21.5%
